Measurements from different studies.
Each numbered part is a random draw from the data of one study; scales do not carry over between parts. Changes are numbered by the printed parent chain.

Study 1
Target: ABI1, truncated, D143A, DHFR fusion (Arabidopsis thaliana)
Technique: DHFR PCA, deep sequencing
Matrix: yeast
Notes: methotrexate growth selection, single substitutions
With: (+)-ABA 17 µM
Baseline: wild-type fitted maximum
Direction: higher = stronger binding
Measurement: relative binding score
Parent: PYL1, truncated, DHFR fusion (Arabidopsis thaliana); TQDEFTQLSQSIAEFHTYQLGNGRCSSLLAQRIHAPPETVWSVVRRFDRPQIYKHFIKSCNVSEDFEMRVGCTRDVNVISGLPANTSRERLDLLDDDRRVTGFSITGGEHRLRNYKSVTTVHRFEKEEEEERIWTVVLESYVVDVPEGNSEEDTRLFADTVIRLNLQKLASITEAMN
Variant = E130H; value = 87.8%
Variant = R99D; value = -24%
Variant = P83M; value = 8.48%
Variant = L112V; value = 5.71%
Variant = L28K; value = 37.7%
Variant = E125C; value = 79.4%
Variant = R90N; value = 17.9%
Variant = I105Y; value = -35.9%
Variant = V70N; value = 26.7%
Variant = G102D; value = -8.25%
Variant = H122W; value = -6.82%
Variant = L112N; value = -5.31%
Variant = L82F; value = 45.8%
Variant = T39F; value = 62.7%
Variant = T86K; value = 66.1%
Variant = C72F; value = 49.9%
Variant = A35G; value = 28.3%
Variant = V62Y; value = 35.4%
Variant = K116Q; value = 78.9%
Variant = A175L; value = 79.3%

Study 2
Target: RNA binding protein fox-1 homolog 2, RRM domain, GST-SBP tag (RBFOX2, Homo sapiens, UniProt O43251-10, residues 100-194)
Technique: RNA Bind-n-Seq
Form: RNA
Matrix: in vitro
Concentration: 365 nM
Notes: natural RNA segment, single round, ends assumed
Baseline: no-protein control
Direction: higher = stronger binding
Measurement: RBNS enrichment (R)
Constant ends, left off below: GGGAGUUCUACAGUCCGACGAUC … UGGAAUUCUCGGGUGCCAA
Construct (chain): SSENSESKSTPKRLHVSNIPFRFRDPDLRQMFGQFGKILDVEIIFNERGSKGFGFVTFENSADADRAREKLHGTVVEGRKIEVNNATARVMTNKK
Sequence = UAUAAGUGACUUUAAACUUUCCCUUGGCUGUUAAGAAGUUUGUUAUAGAUUUAGCUAUUUAUUGUUCGAUGCCUGCAUGCUGAAACAAUGCCUACAGCUGUCUUCACAUG; value = 3.29
Sequence = UUAUCUAAACAGUUGCAGAGAUUUUUAUAUUUGUAGAAAGCAUCAAGAACGGUAUGCCAGUCAGGUCCUGGAAGUAAAAUGGAGGCACAAUAUAGCACUGACUGAGUUGU; value = 1.82
Sequence = CCUAAGUGAUGAAACUAGCUGUAAGAAUGUAACAGGGGUUGUGUUUGAAAUAUUUAUAUUCCCAUCGGUGUGUUUAGUCCUAGAAAAUUGCUAGCAGCAGUCUUCUUCAC; value = 2.65
Sequence = CUGAGGGGUCUAUAGGUUUGUGAUUAAAAUAAUAAAAGCUAGGCGUGUUUGAUGCGCUUUUAACUUUGCAAAGAGUCUCCUGUCCUUGUUUUACACUGUGCAGUGAACAU; value = 0.451
Sequence = AAAUCGUAUGAUUCACCUCAUCUUUAAUAUGCAUUGAAAUAGGUAAUACUAGAUGCAAGUGUUUCCAAAGCAAAAAAGGUGCAAUUUUAAAGAAUACAUAGCCAAAGCAA; value = 0.314
Sequence = UGUUAUACUUUGGACAGACAGAGUUUUAAAAAUGGAAUUAUUUUUUCUUUCAUGCCUCUUGUAAUGUUCUGAACAAACUUGAAUGAUGAAAGUAUUAAAGAGAUAUCAGU; value = 0.464
Sequence = GAGGGUCUACACAGCAAGAGAACAGAAAUACUGUGUCUCAUGAAGGAUCACAGAGUUCAGGGGGAAAAUGUGACAGCACACGCACAAACGCCUUCACUGGAUCAGCCGCU; value = 2.05
Sequence = AUAAAGGAAAGAGGUUUAAUGGACUCAGUUCCACAUGGCUGGGGACGCCUCACAAUCAUGGUGGAAGGCAAGGAGGAGCAAAUCAUGUCUUAUACAUGGAUGGCAGCAGG; value = 0.51
Sequence = AAACAAAACAAAGGCUGUUUUUCCUAAUUUUGGCAUGAACCCCCCCUUGUUCCAAAUGAAGACGGCAUCACGAAGCAGCUCCAAAAGGAAAAGCUUGGGCGGUGCCCAGC; value = 0.336
Sequence = GGAAAGCAGGAAGGGGAAUUUUUAUCCUCCUCCCUUCCGUAAAGUGCUGGGAUAUUUUGAAUCCCCCAAGUUCCCUUGGACCUACUGAUGAGAGAUAGUUUUAUGUAUGG; value = 0.585
Sequence = UUAAAUUUGUUUCAAGAGCUAUUGAAUUUUCAAAUUUUCAGUGUAUUUAUAACUUUUAAGAACAUGAAGUAUUAGCUUAAUAUAGUUUUCUCUGUUGGUUUCUUCCUCAA; value = 0.66
Sequence = CUUGCUCAUGUCUACUCCGGUUUUCUCUACCACAUCCUUAGAGCCAUCACCUGGCACGCAGGCGCCUUACAUUCUACGGUAGAACGUGGGGUACUGUGUGUGCACAUAGA; value = 0.266

Study 3
Target: Histone acetyltransferase KAT6A, both winged helices, GST fusion (KAT6A, Homo sapiens, UniProt Q92794, residues 1-181)
Technique: protein binding microarray
Form: double-stranded DNA, one strand shown
Matrix: in vitro
Concentration: not given
Notes: 8-mer, flanks averaged, mean of 2 arrays, mostly near background
Baseline: not given
Direction: higher = stronger binding
Measurement: E-score
Construct (chain): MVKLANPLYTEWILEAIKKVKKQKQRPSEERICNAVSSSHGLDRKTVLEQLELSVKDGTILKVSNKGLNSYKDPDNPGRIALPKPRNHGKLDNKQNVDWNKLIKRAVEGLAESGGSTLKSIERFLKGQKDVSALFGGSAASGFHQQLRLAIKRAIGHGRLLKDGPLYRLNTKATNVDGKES
Sequence = AACTTATA; value = -0.0498
Sequence = TGGAGCAA; value = -0.0768
Sequence = CGTAGTGC; value = 0.072
Sequence = CTGCCGAA; value = 0.0374
Sequence = CCGAATAG; value = -0.0101
Sequence = AACTCGGC; value = 0.115
Sequence = GATACACC; value = 0.111
Sequence = AATAAATA; value = 0.0158
Sequence = ACCCGGTA; value = 0.188
Sequence = ACACAAAC; value = -0.126
Sequence = GTCTTCTA; value = -0.0992
Sequence = CCGGGGCG; value = 0.216
Sequence = CCCTCATC; value = -0.114
Sequence = GGAAGTAC; value = 0.137
Sequence = GCATTAAC; value = 0.0278
Sequence = CCATTGAA; value = -0.0656
Sequence = CCTAACGC; value = 0.16
Sequence = CCAACGTC; value = -0.0424
Sequence = AATTGCCT; value = -0.0454
Sequence = CGATACAA; value = 0.0119
Sequence = AGTCCACC; value = -0.189
Sequence = ACTGTCAT; value = -0.137

Study 4
Target: CCNB2, cyclin fold, Cln2 fusion (human)
Technique: yeast growth competition, sequencing
Matrix: yeast
Notes: weak parent motif
Baseline: not given
Direction: higher = stronger binding
Measurement: normalised enrichment score
Parent: RB1 docking peptide (human); PKPLKKLRFDIEG
Variant = PKPLKKLGFDIEG [R8G]; value = -0.449
Variant = PKPLKKLWFDIEG [R8W]; value = 0.0868
Variant = CKPLKKLRFDIEG [P1C]; value = 1.27
Variant = DKPLKKLRFDIEG [P1D]; value = 0.769
Variant = PKPLKKLRFDIEM [G13M]; value = 0.0795
Variant = PKPLKKLRFDSEG [I11S]; value = 0.187
Variant = PKPFKKLRFDIEG [L4F]; value = 0.399
Variant = PKPLMKLRFDIEG [K5M]; value = 0.0812
Variant = PKPCKKLRFDIEG [L4C]; value = 0.386
Variant = PKPLKKLHFDIEG [R8H]; value = 0.333
Variant = PKPLKKLEFDIEG [R8E]; value = -0.33
Variant = PPPLKKLRFDIEG [K2P]; value = 0.467
Variant = PKFLKKLRFDIEG [P3F]; value = -0.176
Variant = PKPLKKLRFDISG [E12S]; value = 0.125
Variant = PKPLKKLRFDIES [G13S]; value = 0.42
Variant = PKPLKKARFDIEG [L7A]; value = 0.498
Variant = PKPLCKLRFDIEG [K5C]; value = 0.0365

Study 5
Target: Ras GTPase-activating protein-binding protein 1, RRM domain (G3BP1, Homo sapiens, UniProt Q13283)
UniProt Q13283, sequence (whole entry, looked up): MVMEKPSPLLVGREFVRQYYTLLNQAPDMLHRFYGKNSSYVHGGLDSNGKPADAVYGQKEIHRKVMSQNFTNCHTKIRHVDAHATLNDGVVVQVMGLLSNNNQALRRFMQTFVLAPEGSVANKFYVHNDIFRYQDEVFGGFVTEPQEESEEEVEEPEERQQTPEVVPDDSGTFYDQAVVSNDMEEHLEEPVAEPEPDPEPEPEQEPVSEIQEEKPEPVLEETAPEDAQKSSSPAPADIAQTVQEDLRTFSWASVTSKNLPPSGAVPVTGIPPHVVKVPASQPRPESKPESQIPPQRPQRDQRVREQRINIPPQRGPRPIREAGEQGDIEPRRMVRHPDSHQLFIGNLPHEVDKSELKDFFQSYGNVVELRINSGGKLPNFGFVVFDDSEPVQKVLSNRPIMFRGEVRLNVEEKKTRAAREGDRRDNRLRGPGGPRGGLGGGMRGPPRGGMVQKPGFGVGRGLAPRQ
Technique: RNA Bind-n-Seq
Form: RNA
Matrix: in vitro
Concentration: 1 µM
Notes: whole 134-nt RNA, ends assumed
With: 150 mM KCl
Baseline: input library
Direction: higher = stronger binding
Measurement: log2 enrichment
Constant ends, left off below: GGGAGUUCUACAGUCCGACGAUC … UGGAAUUCUCGGGUGUCAAGG
Sequence = GUCCUGUGCUACACAUCGUAUGUACCGAAUCGGGUUUUUUUGGGAGGGUUUUUUUGGGAAAGUAUUAUGUUACGCCGUUCGGAUCUGCAC; value = -0.00197
Sequence = CUGUGCUACACAUCGUAUGUACCGAAUCAAAUUUUUUUAAAUUUUUUUAAACCCCCCCAAAAAAGUAUUAUGUUACGCCGUUCGGAUCUG; value = -1.02
Sequence = UCAUUCUAUACAGCCUUUUGUUUCAUUAGGAUCAGGCAGCUAGAGACAUGAAGAGGCUUGAAGAAAAGGACAAGGAAAGAAAAAACGUAA; value = -0.0626
Sequence = AAGUCCUGUGCUACACAUCGUAUGUACCGAAUCGGGGUUUUGGGGUUUUGGUUUUGGAAAGUAUUAUGUUACGCCGUUCGGAUCUGCACU; value = -0.367
Sequence = GCAGGAAGUAAAAAGAAAUGGAAAUGCUUCGGAUAGUGGCAGGGGUGGGGGUUGCUAAGGAAAGGGUGGGAUGGGAGUGGGUAAAGAGUU; value = 1.22
Sequence = UGGGAGGUGGAUUUUGUUAAUUUUUUUAGCUCAUUUCCAGGGGUGGGAAUUUUUUUUUAAUAUGUGUCAUGAAUAAAGUUGUUUUUGAAA; value = 0.902
Sequence = CCUCAAGUCCUGUGCUACACAUCGUAUGUACCGAAUCGGUGGGUGGGUGGGGAAAGUAUUAUGUUACGCCGUUCGGAUCUGCACUUCCAG; value = 0.27
Sequence = GUCCUGUGCUACACAUCGUAUGUACCGAAUCGGGAAAAAGGGAAAAAGGGUUUUUGGGAAAGUAUUAUGUUACGCCGUUCGGAUCUGCAC; value = 0.0945
Sequence = UAACUCUAGAGGAGGAUCUGAUGGAUAUGGCAGUGGACGUGGAUUUGGGGAUGGCUAUAAUGGGUAUGGAGGAGGACCUGGAGGUGGCAA; value = -0.521
Sequence = UGUUUAAUAAACGUGAAGAUGUCUCGCAGUCCUGAUGCGAAGGAAGACCCUGUGGAGUGCCCUCUUUGCAUGGAGCCCUUGGAGAUAGAU; value = -0.129
Sequence = CAAGUCCUGUGCUACACAUCGUAUGUACCGAAUCGGUUUUUGGUUUUUGGUUUGGAAAGUAUUAUGUUACGCCGUUCGGAUCUGCACUUC; value = -0.24
Sequence = GCAGGAAGUAAAAACAAAUGGAAAUGCUUCGGAUAGUGGCAGGAGUGGGGGUUGCUAAGGAAAGGGUGGGAUGGGAGUGGGUAAAGAGUU; value = 0.911
Sequence = CAAGUCCUGUGCUACACAUCGUAUGUACCGAAUCGGGAAAAGGAAAAGGGAAAAGGAAAGUAUUAUGUUACGCCGUUCGGAUCUGCACUU; value = -0.206
Sequence = CCUGUGCUACACAUCGUAUGUACCGAAUCGGGGAAAAAAGGAAAAAAGGGGAAAAAAGGGGAAAGUAUUAUGUUACGCCGUUCGGAUCUG; value = -0.121

Excerpt of the above (study 1):
Variant = E125C; value = 79.4%
Variant = R90N; value = 17.9%
Variant = I105Y; value = -35.9%
Variant = V70N; value = 26.7%
Variant = G102D; value = -8.25%
